Measured values of several laboratories.
Every numbered part comes from another study and shows a few of its results, in no order.

Sample 1 — method: protein-binding microarray; molecule type: double-stranded DNA, one strand shown; medium: in vitro; concentration: 0.8 µM; notes: whole 60-bp probe, no competitor; direction: higher = stronger binding; quantity: fluorescence intensity; shared flanks, not repeated: … GTCTTGATTCGCTTGACGCTGCTG
Target: Centromere-binding protein 1, full length, N-terminal tag (CBF1, Saccharomyces cerevisiae, UniProt P17106, residues 1-351)
Chain of UniProt P17106 (whole entry, looked up): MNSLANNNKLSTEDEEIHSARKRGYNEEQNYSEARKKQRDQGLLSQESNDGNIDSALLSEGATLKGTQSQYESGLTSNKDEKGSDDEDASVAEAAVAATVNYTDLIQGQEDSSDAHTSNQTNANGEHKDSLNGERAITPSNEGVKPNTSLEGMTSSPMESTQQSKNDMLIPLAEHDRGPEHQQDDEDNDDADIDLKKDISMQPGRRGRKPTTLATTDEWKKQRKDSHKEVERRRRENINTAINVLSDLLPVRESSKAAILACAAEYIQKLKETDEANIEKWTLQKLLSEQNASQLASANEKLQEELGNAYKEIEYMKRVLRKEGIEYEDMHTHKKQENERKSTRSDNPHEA
TGTACGAAGCTATATCTCGTGATTATAGTAGTTAGG: 1490 a.u.
CTATTGTTATCACCCCACGACGAAGATAATACGTTC: 635 a.u.
CTAGTTTTTCACGTTGACGTGCTTCTTAGTCCTTTC: 606 a.u.
CTATTTGCTGTTGATCACGTGATTCATAATTTTTTC: 48300 a.u.
GAACCAATTTTTATCATCGTGACACCAATCACTTAG: 975 a.u.
CCTAACTACTATACCCACACGCAATAGCTTCGTACA: 537 a.u.
CTAGCACGCTGCAGTTGCATCAGGGTTGTTTTATTC: 504 a.u.
CTACAAGTTTCGGGTCACCCCACACGTATTTGGTTC: 644 a.u.
GAATCTCTTTTTTTTCACATGCGCAGAACCTATTAG: 715 a.u.
CTACATATATATATACACGTTGGTACGATATGCTTC: 757 a.u.
GAAAACTAATGTTTAGTGATGATGATGAAATAGTAG: 581 a.u.
GAAGACACAGAACCACAGCTGACCGGTAGTAAATAG: 576 a.u.
GAACTTCATTAACATGTGACAAGTGCCCATCCATAG: 2800 a.u.
GAACATTTAATGCGTGACGTTGAATCGAGAAAATAG: 1270 a.u.
CTATAACTAGTTCATCAGTTGATGTGTCTGTATTTC: 504 a.u.
GAAGATAATTACTACCATCACCTGCATCAAATTTAG: 829 a.u.
GAAGCGGAGTTCCATCAGCTATGGTTCGGATATTAG: 505 a.u.

Sample 2 — method: protein-binding microarray; molecule type: double-stranded DNA, one strand shown; medium: in vitro; concentration: 2540 nM top; notes: 60-bp whole probe; with: salmon DNA 0.4 mg/ml; baseline: random background probes; direction: higher = stronger binding; quantity: fitted relative affinity; shared flanks, not repeated: GCCTAGCAC … GTCTTGATTCGCTTGACGCTGCTG
Target: Interferon regulatory factor 3, full length, phosphomimetic (IRF3, Homo sapiens, UniProt Q14653, residues 1-427, S386D/S396D/S398D/S402D/T404D/S405D)
Chain of UniProt Q14653 (whole entry, unmodified, looked up): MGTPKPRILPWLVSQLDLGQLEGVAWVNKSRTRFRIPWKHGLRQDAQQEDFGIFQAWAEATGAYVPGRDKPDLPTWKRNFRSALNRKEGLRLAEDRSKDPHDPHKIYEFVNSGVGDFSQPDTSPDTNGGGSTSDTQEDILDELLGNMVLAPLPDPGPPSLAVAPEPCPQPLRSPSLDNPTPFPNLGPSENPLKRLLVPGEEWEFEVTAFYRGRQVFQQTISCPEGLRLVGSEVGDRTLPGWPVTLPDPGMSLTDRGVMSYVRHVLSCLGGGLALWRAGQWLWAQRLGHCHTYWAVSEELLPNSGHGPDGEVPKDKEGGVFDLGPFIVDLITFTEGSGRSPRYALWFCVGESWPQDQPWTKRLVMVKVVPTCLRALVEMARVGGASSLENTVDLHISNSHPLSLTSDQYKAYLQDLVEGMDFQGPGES
TTAGAGTTCAGTTTCGATTAGTGCTAG: 4.11 z-score
TCAGAAATCGGTGATCAGACTGTGCTA: -0.206 z-score
GACGGACTGGACTATCGGGAAGTGCTA: -0.465 z-score
GACGGTTTCGGGAATCGGGACGTGCTA: 3.67 z-score
TTAGATATCGGGTAACGATTAGTGCTA: -0.0677 z-score
GACGGACTGGCACTGGGGACGTGCTAG: -0.995 z-score
TTAGGTATCCTAATGCTTTAGTGCTAG: 4.07 z-score
GTCACTCTCTGGGCTGTGGGTGTGCTA: 0.0943 z-score
GACGGTATCCTTATCCCGACGTGCTAG: 5.64 z-score
TTAGGTATCGGTCTTGGTTAGTGCTAG: 4.36 z-score
GTTAGTGGGATGGCTGTGGTGTGCTAG: -1.01 z-score
TTAGGTTTCGGGTTACGGTTAGTGCTA: 4.94 z-score
TAAGGACTGGGGTATCGGTTAGTGCTA: 0.0517 z-score
TTAGGTTTCGGTATCGGGTAGTGCTAG: 7.98 z-score
GACGGTCTCCTTTTCCTGAAGTGCTAG: 5.02 z-score
TTAGATATCCGGACTGGATTAGTGCTA: 0.76 z-score
TTACATTCCCCATTGTGTTGGTGCTAG: 1.36 z-score
CTAGGTTTCGACTTTCGGTTAGTGCTA: 4.01 z-score
TTAGATACCAGTATCGATTAGTGCTAG: 1.43 z-score
GACGAACTGAGTATTGAGACGTGCTAG: -0.117 z-score
GACGGACTGGGACAGGGGACGTGCTAG: -0.668 z-score
TTAGGACTGGATATCGGTTAGTGCTAG: -0.202 z-score
GACGGGATCCTTATCCTGACGTGCTAG: 2.84 z-score
TCATTTCTCAACCATTTTACTGTGCTA: 2.76 z-score
TTAGATTACAGTATCGATTAGTGCTAG: 1.08 z-score

Sample 3 — method: RNA Bind-n-Seq; molecule type: RNA; medium: in vitro; concentration: 365 nM; baseline: no-protein control; direction: higher = stronger binding; quantity: RBNS enrichment (R)
Target: RNA binding protein fox-1 homolog 2, RRM domain, GST-SBP tag (RBFOX2, Homo sapiens, UniProt O43251-10, residues 100-194)
Notes: natural RNA segment, single round, ends assumed
Shared flanks, not repeated: GGGAGUUCUACAGUCCGACGAUC … UGGAAUUCUCGGGUGCCAA
Residues (chain): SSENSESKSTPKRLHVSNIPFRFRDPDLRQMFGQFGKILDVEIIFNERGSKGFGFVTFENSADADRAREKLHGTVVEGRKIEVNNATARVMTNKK
ACACCUGUAGCACUUACUGGUAGGACCAAGCAUCUUGGGGGGGUGGCCGCUGAGUGGCAGGGGACAGGAGUCCACUUUGUUUCGUGGGGAGGUCUAAUCUAGAUAUCGAC: 1.62
GUAACAAUCUGGAAGGAAACUUCACGGACAGGAAGACUGCUGGAGAAGAGAAGCGUGUUAGCCCAUUUGAGGUCUGGGGAAUCAUGUAAAGGGUACCCAGACCUCACUUU: 0.411
GCCUGAGCAGUACCAAGGUCUUACUGUCUCUAUUCCUUUCUCCAUGGCCUGCUUUGCCUGGGUUGUGGGGAAGGAGGAGGAGGGGGACCCUGGGGGUGUAUUAUAUAUAG: 0.832
UUUCUCUCUCCUGAACCCUACUCUCUCCUUUUUGCUUCCUCAGUUUUUAUCAGGCUUUCUCUGGGGGACAGCAGUCUCUGAGCACCAGGGAGCAGUUGCCCUCAGGCCUG: 0.395
AUGAGUUUAAUCAUUGUUCAUUUAUUGCCUUUAGGGCUGAGGGAAAGGGAAGGUUUGUUUUUUUUUCUCCCCAUUUUCCCCCAUUCUGUCUUUCUUUUGGUGACUUACAC: 0.523
UAAGAAGCCAUUUCCACUACAGUGAGAAAGCCCGGAUCCCAACAGUUGUCAAAUUGAUUAGUUUGCCUAAUUCAUGUUUUCACUUAAAAGUAUCAGAGGUGAAUGCACAG: 1.01
UCUAUGUUCAAGACGUAGCUGCAAUAAAAUCCCAGUAGUAAAGGCUCAUUUAGCUCUGUAGCUUUCGGCUCAAUUAAUGUACUUCCUUAUAGUGAAUGAGAAGUGGUAGU: 0.6
UGACUUCUUCCUUUCACUGCUGUUUAUAAAAUGUGUAAUGAAUUCUAACAACUCAAAUUUUGCUUUUUGAAGCUGUAUUUUUAAGUUAAGAAAAUAUAUUUUUGGUAUAA: 1.11
CUCACAGGUUUUCAUUCUUUUGAACUCUGGUGCACUCCAUCUGUAAUCCAUGUCUAUAAUCUACCAACAAAGAUGUACUCUUAAACUCAGUAUCACCAGGCACUAUAUUU: 0.216
ACUCCAAACAGUACCUUUGCUUUGUUUGUACAAAAAUGAAGACCUAUAGCCAACACAAAGCAAAUGCCAGAGGUAUUGGAUGAUGCCAUAUUUGAACUGCCAUCUAUUAG: 0.696
ACCAACUCCAGCUAUUGAGUCGUGAGACUUCUGUGUUGCAGAUGUGCCUGUUCCUCCAUCCUGCUGCCCCCCUCCAGGCCUGCCAGGUGGCCCCUGAAGGUUGCUUUAAG: 0.394
AAAAGGGUGAAGAGCUCAAAGAACCCCGACUCCCCCCUCCCCUCCCACCUCAUUGUGUACCAUGAGGGGUCCUUGGGAAAUGUCUUACCUCUUGUGUUGAAUGGAGACCU: 0.717

Sample 4 — target: UBE2L3 UBC core domain (UniProt P68036); method: yeast two-hybrid; medium: yeast; notes: mostly zero background; baseline: not given; direction: higher = stronger interaction; quantity: lacZ reporter activity
Chain of UniProt P68036 (whole entry, looked up): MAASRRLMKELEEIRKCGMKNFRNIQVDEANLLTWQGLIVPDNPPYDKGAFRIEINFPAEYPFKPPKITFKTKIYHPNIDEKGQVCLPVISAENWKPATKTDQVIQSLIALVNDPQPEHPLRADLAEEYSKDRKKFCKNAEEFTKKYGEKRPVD
B1: TRIML1 RING domain (UniProt Q8N9V2); chain LMENLREELTCFICLDYFSSPVTTECGHSFCLVCLLRSWEEHNTPLSCPECWRTLEGPHFQS
B2: TRIM4 RING domain (UniProt Q9C037); chain EAEDIQEELTCPICLDYFQDPVSIECGHNFCRGCLHRNWAPGGGPFPCPECRHPSAPAALRP
QVDKAVFHMQSVKCLKCQEQKRAVLPCQHAALCELCAEGSECPICQPGRAHTLQS (UNK RING domain (UniProt Q9C0B0)): 0
MPIRALCTICSDFFDHSRDVAAIHCGHTFHLQCLIQWFETAPSRTCPQCRIQVGKRTIIN (TRAIP RING domain (UniProt Q9BWF2)): 0
B1 (TRIML1 RING domain): 0
FQGDVDEDLICPICSGVLEEPVQAPHCEHAFCNACITQWFSQQQTCPVDRSVVTVAHLRP (RNF41 RING domain (UniProt Q9H4P4)): 0
B2 (TRIM4 RING domain): 0
ASLPTSEEDLCPICYAHPISAVFQPCGHKSCKACINQHLMNNKDCFFCKTTIVSVEDWE (RNF123 RING domain (UniProt Q5XPI4)): 0

Mixed results
GSPAKKLFTSTGL  enrichment score (Saccharomyces cerevisiae; peptide binding, yeast competitive growth sequencing; peptide, cyclin E2-Cln2 fusion; library 1; direction not given): 0.239

A few entries again (sample 1):
CTAGCACGCTGCAGTTGCATCAGGGTTGTTTTATTC: 504 a.u.
GAAGCGGAGTTCCATCAGCTATGGTTCGGATATTAG: 505 a.u.
CTAGTTTTTCACGTTGACGTGCTTCTTAGTCCTTTC: 606 a.u.
GAAGACACAGAACCACAGCTGACCGGTAGTAAATAG: 576 a.u.
GAAAACTAATGTTTAGTGATGATGATGAAATAGTAG: 581 a.u.
GAACATTTAATGCGTGACGTTGAATCGAGAAAATAG: 1270 a.u.
GAAGATAATTACTACCATCACCTGCATCAAATTTAG: 829 a.u.
CTATAACTAGTTCATCAGTTGATGTGTCTGTATTTC: 504 a.u.
